Assay results from different studies.
Numbered parts are unrelated; each lists some results of a single study.

Block 1
Target: Replicase polyprotein 1ab, main protease (rep, Severe acute respiratory syndrome coronavirus 2, UniProt P0DTD1)
Read-out: enzyme activity
Action: inhibitor
Tested at: 20 µM
Setting: hit confirmation
SMILES	inhibition
c1ccc2sc(SNC3CCCCC3)nc2c1	69.6%
COc1cc(N(C)C)cc(CN(C)CCc2ccc([N+](=O)[O-])cc2)c1O	104%
CCC(C)SSc1ncc[nH]1 (stereo not drawn)	99.8%

Block 2
Target: Histone acetyltransferase KAT6A, winged helix 2, GST fusion (KAT6A, Homo sapiens, UniProt Q92794, residues 85-181)
Method: protein binding microarray
Molecule type: double-stranded DNA, one strand shown
Sample: in vitro
Tested at: not given
Setting: 8-mer, flanks averaged, mean of 2 arrays, mostly near background
Reference: not given
Reading: higher = stronger binding
Construct (chain): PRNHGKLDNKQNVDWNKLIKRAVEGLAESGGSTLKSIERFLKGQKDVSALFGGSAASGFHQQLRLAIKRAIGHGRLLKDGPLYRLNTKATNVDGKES
Strand	E-score
TGATTACA	0.055
ATCTACTC	-0.0509
GCAGGTTA	-0.0109
GATGGGAC	-0.339
GCCTCGAA	0.222
AGGTCTTA	-0.0766
GGCCGCCA	0.104
GACTCCGA	-0.0962

Block 3
Cell line: HEK-293T
Read-out: pseudovirus infection
Method: FDA-approved drug library screen
Organism: VSV pseudotyped with SARS-CoV-2 spike
Tested at: 10 µM
Time: 16 h
Reference: vehicle-treated
SMILES	GFP-positive cells [%]
CC(C)CC(N(C)C)C1(c2ccc(Cl)cc2)CCC1 (stereo not drawn)	102
Cc1ccc(Sc2ccccc2N2CCNCC2)c(C)c1	47.2
CCCC(=O)Nc1ccc(OCC(O)CNC(C)C)c(C(C)=O)c1 (stereo not drawn)	86.6
CN(C)CCC(c1ccccc1)c1ccccn1 (stereo not drawn)	86.3
OC[C@@H](O)[C@@H](O)[C@H](O)[C@H](O)CO	73.5

Block 4
Target: Replicase polyprotein 1ab, polymerase (rep, Severe acute respiratory syndrome coronavirus 2, UniProt P0DTD1)
Read-out: enzyme activity
Action: inhibitor
Tested at: 20 µM
SMILES	inhibition
Cc1cc(N2CCOCC2)ccc1Nc1nc(NC2CCCCC2)c2[nH]cnc2n1	0.91%
O[C@@H]1CCCC[C@H]1N1CCC(c2ccccc2)CC1 (racemic)	-1.96%
O=C1N(c2ccccc2)c2ccccc2C1(Cc1ccncc1)Cc1ccncc1	1.81%
Cc1c[nH]c(=O)n(CCCN2CCN(c3ccccc3OCC(F)(F)F)CC2)c1=O	-4.8%
O=S(=O)(c1cccc2c(O)nccc12)N1CCCNCC1	1.45%
O=C(O)P(=O)(O)O	18.1%
CO[C@H]1C[C@H](O[C@@H]2/C(C)=C/C[C@@H]3C[C@@H](C[C@]4(CC[C@H](C)[C@@H](C5CCCCC5)O4)O3)OC(=O)[C@@H]3C=C(C)/C(=N/O)[C@H]4OC/C(=C\C=C\[C@@H]2C)[C@]43O)O[C@@H](C)[C@@H]1O	-2.39%
COc1cc(SC)ccc1C(=O)N1CCC(Cc2ccccc2)CC1	4.64%

Excerpt of the above (block 2):
Strand	E-score
TGATTACA	0.055
GCAGGTTA	-0.0109
GCCTCGAA	0.222
GACTCCGA	-0.0962
